Measured values of several laboratories.
A part holds a random share of what one study measured.

Set 1 — method: universal PBM; molecule type: double-stranded DNA, one strand shown; matrix: in vitro; tested at: 600 nM; direction: higher = stronger binding
Target: Sal-like protein 4, full length isoform A (SALL4, Homo sapiens, UniProt Q9UJQ4, residues 1-1053)
Chain of UniProt Q9UJQ4 (whole entry, looked up): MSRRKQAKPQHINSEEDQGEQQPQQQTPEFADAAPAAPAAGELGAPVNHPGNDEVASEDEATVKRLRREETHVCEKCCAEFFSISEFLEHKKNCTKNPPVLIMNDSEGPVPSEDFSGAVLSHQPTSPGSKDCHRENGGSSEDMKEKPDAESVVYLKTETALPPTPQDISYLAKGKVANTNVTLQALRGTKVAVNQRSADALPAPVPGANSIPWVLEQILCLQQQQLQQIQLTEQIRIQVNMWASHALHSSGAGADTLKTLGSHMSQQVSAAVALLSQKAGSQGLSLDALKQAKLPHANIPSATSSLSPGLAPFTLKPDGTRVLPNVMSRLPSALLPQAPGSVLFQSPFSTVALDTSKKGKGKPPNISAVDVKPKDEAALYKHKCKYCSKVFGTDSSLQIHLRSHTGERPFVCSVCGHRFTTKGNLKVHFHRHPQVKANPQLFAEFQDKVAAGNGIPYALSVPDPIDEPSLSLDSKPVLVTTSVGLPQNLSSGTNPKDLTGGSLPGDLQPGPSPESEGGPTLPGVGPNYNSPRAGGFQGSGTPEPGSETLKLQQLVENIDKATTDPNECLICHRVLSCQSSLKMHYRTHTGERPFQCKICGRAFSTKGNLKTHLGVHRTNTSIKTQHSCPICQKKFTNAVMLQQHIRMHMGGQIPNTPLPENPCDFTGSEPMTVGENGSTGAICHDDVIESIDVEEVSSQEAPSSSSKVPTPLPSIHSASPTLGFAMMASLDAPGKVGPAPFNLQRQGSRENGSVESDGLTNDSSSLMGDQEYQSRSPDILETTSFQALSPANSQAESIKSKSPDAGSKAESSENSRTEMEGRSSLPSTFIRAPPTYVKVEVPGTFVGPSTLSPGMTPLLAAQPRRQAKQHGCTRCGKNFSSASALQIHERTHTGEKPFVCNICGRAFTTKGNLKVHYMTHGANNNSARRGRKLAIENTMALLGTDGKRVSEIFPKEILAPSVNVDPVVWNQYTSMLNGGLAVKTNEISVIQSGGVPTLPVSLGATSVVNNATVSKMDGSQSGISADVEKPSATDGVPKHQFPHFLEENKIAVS
Notes: 8-mer, flanks averaged, mean of replicates
For `ATACCGCG`, the E-score was -0.155.
With `CCATCCCC` the E-score was -0.268.
`GGCAGTAA` gave an E-score of -0.133.
`ATTACAAG` has an E-score of 0.341.
The E-score of `ACTGCTTA` is reported as 0.0282.

Set 2 — method: aptamer microarray, sandwich; molecule type: DNA with 2'F-ANA; matrix: in vitro; tested at: 200 nM; added: Cy3 exosite-II aptamer, 400 nM; direction: higher = stronger binding
Target: Prothrombin, mature alpha-thrombin (F2, Homo sapiens, UniProt P00734)
Notes: whole 15-mer aptamer, many near background
`GGTTGGTGTGGTTGG (2'F-ANA at 3 6 7 11 15)`: “mean fluorescence intensity” 839 a.u.
`GGTTGGTGTGGTTGG (2'F-ANA at 4 5 7 10 12 14)` — result for “mean fluorescence intensity”: 43.5 a.u.
`GGTTGGTGTGGTTGG (2'F-ANA at 4 7 8 11)`: “mean fluorescence intensity” 378 a.u.
`GGTTGGTGTGGTTGG (2'F-ANA at 2 5 8 9 11 13 15)` — result for “mean fluorescence intensity”: 59.2 a.u.

Set 3 — method: protein binding microarray; molecule type: double-stranded DNA, one strand shown; matrix: in vitro; tested at: not given; relative to: not given; direction: higher = stronger binding
Target: Histone acetyltransferase KAT6A, winged helix 1, GST fusion (KAT6A, Homo sapiens, UniProt Q92794, residues 1-85)
Notes: 8-mer, flanks averaged, mean of 2 arrays, mostly near background
Residues (chain): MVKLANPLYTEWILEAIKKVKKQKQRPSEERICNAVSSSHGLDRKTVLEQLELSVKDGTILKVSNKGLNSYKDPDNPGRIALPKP
The E-score of `AGGCAGCA` is reported as -0.208.
`ACATAACG` gave an E-score of -0.00072.
`AAAATTCC` has an E-score of -0.0284.
`ACCACTTC` gave an E-score of -0.128.
For `GTTCGTAA`, the E-score was -0.104.

Mixed results
For `PhoQ, residues 284 288 289 292 302 303 WSHMKI`, the fold induction was 4.8 (PhoP, residues 12 14 15 18 19 LWHVM (Escherichia coli, UniProt P23836); Sort-seq, refers to: YFP reporter; E. coli; PhoQ-PhoP variant library, added: 10 µM Mg2+; relative to: high Mg2+ state, higher = stronger signaling).

Repeated from above (set 3):
`ACATAACG` gave an E-score of -0.00072.
